Experimental data pooled from the literature.
Each numbered part is a random draw from the data of one study; scales do not carry over between parts. Substitutions count along the parent as printed.

Block 1
Target: Sal-like protein 4, full length isoform B (SALL4, Homo sapiens, UniProt Q9UJQ4-2, residues 1-616)
Method: universal PBM
Molecule type: double-stranded DNA, one strand shown
Matrix: in vitro
Tested at: not given
Notes: 8-mer, flanks averaged, mean of replicates
Direction: higher = stronger binding
Residues (chain): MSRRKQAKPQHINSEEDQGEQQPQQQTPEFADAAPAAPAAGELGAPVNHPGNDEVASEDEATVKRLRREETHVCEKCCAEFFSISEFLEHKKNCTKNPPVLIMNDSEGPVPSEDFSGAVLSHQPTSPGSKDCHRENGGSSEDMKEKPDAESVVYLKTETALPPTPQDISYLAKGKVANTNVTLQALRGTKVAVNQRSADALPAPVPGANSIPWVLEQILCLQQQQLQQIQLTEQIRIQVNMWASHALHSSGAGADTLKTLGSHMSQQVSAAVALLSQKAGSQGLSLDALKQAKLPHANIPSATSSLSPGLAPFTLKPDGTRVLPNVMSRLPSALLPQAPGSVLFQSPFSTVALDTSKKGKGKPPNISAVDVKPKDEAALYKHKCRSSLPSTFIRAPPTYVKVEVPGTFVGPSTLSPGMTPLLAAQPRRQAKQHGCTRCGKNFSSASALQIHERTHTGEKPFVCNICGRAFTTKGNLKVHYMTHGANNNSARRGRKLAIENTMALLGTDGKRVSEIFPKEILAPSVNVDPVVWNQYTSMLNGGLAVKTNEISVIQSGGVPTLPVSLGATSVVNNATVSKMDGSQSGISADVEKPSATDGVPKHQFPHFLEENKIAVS
`ATGCTAAG` gave an E-score of 0.0717.
`GATGCAGC` gave an E-score of -0.149.
The E-score of `CGGTCTCC` is reported as -0.382.
`ATCATTCA` gave an E-score of 0.253.
`GTAATCGA` gave an E-score of 0.0677.
With `CAAATCGA` the E-score was 0.109.
`CTCATGCA` has an E-score of 0.0848.
`CGTTGACC` gave an E-score of -0.13.

Block 2
Target: CCND1, cyclin fold, Cln2 fusion (human)
Method: yeast growth competition, sequencing
Matrix: yeast
Notes: weak parent motif
Baseline: not given
Direction: higher = stronger binding
Starting sequence: SLBP docking peptide (human); ARYKRKLLINDFG
For `F12I`, “normalised enrichment score” read 0.0662.
Under “normalised enrichment score”, `R5K` is recorded as 0.291.
For `G13M`, “normalised enrichment score” read 0.265.
`Y3N` — result for “normalised enrichment score”: -0.129.
Under “normalised enrichment score”, `K4A` is recorded as -0.16.
Under “normalised enrichment score”, `R5T` is recorded as -0.155.
`L8Q` — result for “normalised enrichment score”: 0.0313.

Block 3
Target: Histone acetyltransferase KAT6A, winged helix 2, GST fusion (KAT6A, Homo sapiens, UniProt Q92794, residues 85-181)
Method: protein binding microarray
Molecule type: double-stranded DNA, one strand shown
Matrix: in vitro
Tested at: not given
Notes: 8-mer, flanks averaged, mean of 2 arrays, mostly near background
Baseline: not given
Direction: higher = stronger binding
Construct (chain): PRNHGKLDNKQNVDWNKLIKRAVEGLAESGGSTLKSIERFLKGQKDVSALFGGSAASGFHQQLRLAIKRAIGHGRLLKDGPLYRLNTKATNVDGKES
With `ACTCAAAC` the E-score was 0.135.
With `ATCTAAGG` the E-score was 0.0302.
The E-score of `AGTTCCAT` is reported as -0.0531.
`GCCCGAAA` has an E-score of 0.136.
`CAATGTGG` has an E-score of -0.17.
For `CGACAGGC`, the E-score was 0.107.
`AACTAATG` gave an E-score of 0.0727.
For `CTAAAGAA`, the E-score was 0.0753.

Other studies, line by line
With `PhoQ, residues 284 288 289 292 302 303 SIHMAM` the fold induction was 1.44 (PhoP, residues 12 14 15 18 19 TTLRV (Escherichia coli, UniProt P23836); Sort-seq, refers to: YFP reporter; E. coli; PhoQ-PhoP variant library, with: 10 µM Mg2+; baseline: high Mg2+ state, higher = stronger signaling).

A few entries again (block 2):
Under “normalised enrichment score”, `R5T` is recorded as -0.155.
For `F12I`, “normalised enrichment score” read 0.0662.
